Published values of several laboratories.
Lines come from different studies, so protocols differ.
Technique: steady-state kinetics
B1: enzyme (Kluyveromyces lactis, UniProt Q6CSZ6); chain MSSLDINEQRALIKSAHRYISEKLEDHFSSEFLPKALVICGSGLSGISTKIADEPKPLILSYSTIPGFKVSTVPGHSGELIFGYMNGAPVVLMNGRLHSYEGHSLAETVHPIRALHLLGSINVLIVTNAAGGINASFKAGDLMCVYDHINFPGLCGFHPLRGANFDEFGPRFLATSDAYDLELRKLLFSKKKELNIERKIHEGTYSYVHGPTFESRAESRFLRLAGTDAVGMSTVPEVVTARHCGWRVLALSLITNECVVDPPASAHDENPVPIQEGKATHEEVLENSAKASKDVQELIFSVVAEI
B2: enzyme (Equus caballus, UniProt P00327); chain STAGKVIKCKAAVLWEEKKPFSIEEVEVAPPKAHEVRIKMVATGICRSDDHVVSGTLVTPLPVIAGHEAAGIVESIGEGVTTVRPGDKVIPLFTPQCGKCRVCKHPEGNFCLKNDLSMPRGTMQDGTSRFTCRGKPIHHFLGTSTFSQYTVVDEISVAKIDAASPLEKVCLIGCGFSTGYGSAVKVAKVTQGSTCAVFGLGGVGLSVIMGCKAAGAARIIGVDINKDKFAKAKEVGATECVNPQDYKKPIQEVLTEMSNGGVDFSFEVIGRLDTMVTALSCCQEAYGVSVIVGVPPDSQNLSMNPMLLLSGRTWKGAIFGGFKSKDSVPKLVADFMAKKFALDPLITHVLPFEKINEGFDLLRSGESIRTILTF
B3: enzyme (Sulfolobus acidocaldarius, UniProt Q4JAC4); chain MFIISFEGIDGSGKTTISKIIYEKLLIEIGSNKKIILTSEPFSQEIIKLIEEIGWKDPISLALLFTADRAYHLNLLFKQNPEIIIMDRYIDSTIAYQSSLGIDENWIRNLNKYFPEPDLTILLDLKPETAIARIKNKVDKFNFDEKISTLSKVREKYLELAKRNNKIRIVNAEKSIDEIVEETWSIVYSFLNHF
B4: enzyme S252E (Schizosaccharomyces pombe, UniProt P78804); chain MSTPYEPEFQQAYKEIVGSIESSKLFEVHPELKRVLPIISIPERVLEFRVTWEDDKGNCRVNTGYRVQFNSALGPYKGGLRFHPSVNLSILKFLGFEQIFKNALTGLPMGGGKGGSDFDPKGKSDNEIRRFSQAFMRQLFRYIGPQTDVPAGDIGVTGFVVMHMFGEYKRLRNEYSGVVTGKHMLTGGSNIRPEATGYGVVYYVKHMIEHRTKGAETLKGKRVAISGSGNVAQYAALKCIQEGAIVKSISDEKGVLIAKTAEGLVPEEIHEIMALKEKRASIADSASLCKKHHYIAGARPWTNVGEIDIALPCATQNEVSGEEAAALIKQGCRYVAEGSNMGSSAEAVEVFEKSRASGEGCWLAPGKAANAGGVAVSGLEMAQNAQFSTWTHAEVDAKLAGIMQNIFEQSTDVASKYCDSGSNNIPSLVDGANIAGFLKVATAMQAVGDWW
B5: enzyme Y136L/Y168I (Bradyrhizobium diazoefficiens, UniProt Q45222); chain MIQTERAVQQVLEWGRSLTGFADEHAVEAVRGGQYILQRIHPSLRGTSARTGRDPQDETLIVTFYRELALLFWLDDCNDLGLISPEQLAAVEQALGQGVPCALPGFEGCAVLRASLATLAYDRRDYAQLLDDTRCLSAALRAGHAQAVAAERWSYAEYLHNGIDSIAIANVFCCLSLLWGLDMATLRARPAFRQVLRLISAIGRLQNDLHGCDKDRSAGEADNAVILLLQRYPAMPVVEFLNDELAGHTRMLHRVMAEERFPAPWGPLIEAMAAIRVQYYRTSTSRYRSDAVRGGQRAPA
B6: enzyme (Nicotiana tabacum, UniProt A0A1S4B614); chain MRINIKESIMVKPSKPTPSKRLWNSNLDVIVGRIHLLTVYFYKPNGTSPNFFDFRIMKEALSNVLVSFYPMAGRLAKDNEKERIEINCNGEGVLFIEAEIDAFIDDFGDFIPSLEIKKMLIPSVDTSGDISSFPLVIFQVTRFKCGGISLGCGVFHTLSDGISSLHFINTWSEVARGVSVAVSPFIDRSLLHARDPPTPAYKHVEYHSPPALKSSSKNVHDQVSGSKSSTKAMFKITSDQLTLLKTKSKHEGSTYEILAAHIWRCTCKTRVLDDDQLTKLHVATDGRSRLFPPLPPGYLGNVVFTATPIAKSGEILSEPLMNTAQRIHSALARMDDEYLRSAIDYLELQTDLSKLIRGPTYFASPNLNINSWTRLPVHDSDFGWGKPIHMGPACILYEGTVYILPSPSNDKNLRLAVCLDADHMPLFEKYLYEF
B7: enzyme T339A (Arabidopsis thaliana, UniProt Q9LJK1); chain EKCQEWLERVDSVTYSRDFTKDPIFISGSNKDFKSCSVDCVMGFTSDKKPDAAFGLSHQPGTLSIIRSMESAQYYQENNLAQARRKGYDIVMTTSLSSDVPVGYFSWAEYDIMAPVQPKTEKALAAAFISNCAARNFRLQALEALMKTNVKIDSYGGCHRNRDGSVEKVEALKHYKFSLAFENTNEEDYVTEKFFQSLVAGSVPVVVGAPNIEEFAPSPDSFLHIKQMDDVKAVAKKMKYLADNPDAYNQALRWKHEGPSDSFKALIDMAAVHSSCRLCIFVATRIREQEEKSPEFKRRPCKCTRGSETVYHLYVRERGRFDMESIFLKDGNLTLEALESAVLAKFMSLRYEPIWKKERPASLRGDGKLRVHGIYPIGLTQRQALYNFKFEGNSSLSTHIQRNPCPKFEVVFV
B8: SABP2 (Nicotiana tabacum, UniProt Q6RYA0); chain MKEGKHFVLVHGACHGGWSWYKLKPLLEAAGHKVTALDLAASGTDLRKIEELRTLYDYTLPLMELMESLSADEKVILVGHSLGGMNLGLAMEKYPQKIYAAVFLAAFMPDSVHNSSFVLEQYNERTPAENWLDTQFLPYGSPEEPLTSMFFGPKFLAHKLYQLCSPEDLALASSLVRPSSLFMEDLSKAKYFTDERFGSVKRVYIVCTEDKGIPEEFQRWQIDNIGVTEAIEIKGADHMAMLCEPQKLCASLLEIAHKYN

`B1 (enzyme)` has a Km of 188 µM (OC[C@H]1O[C@@H](n2cnc3c(O)ncnc32)[C@H](O)[C@@H]1O).
With `B2 (enzyme)` the Km was 105 µM (NC(=O)c1ccc[n+]([C@@H]2O[C@H](COP(=O)(O)OP(=O)(O)OC[C@H]3O[C@@H](n4cnc5c(N)ncnc54)[C@H](O)[C@@H]3O)[C@@H](O)[C@H]2O)c1; pH 7, 30 °C, cofactor varied).
The Km of `B3 (enzyme)` is reported as 13 µM (Cc1cn([C@H]2C[C@H](O)[C@@H](COP(=O)(O)O)O2)c(=O)[nH]c1=O; pH 7.4, 55 °C, with: ATP 2 mM).
For `gdh E198C (Bacillus subtilis)`, the Km was 1320 µM (NC(=O)c1ccc[n+]([C@@H]2O[C@H](COP(=O)(O)OP(=O)(O)OC[C@H]3O[C@@H](n4cnc5c(N)ncnc54)[C@H](O)[C@@H]3O)[C@@H](O)[C@H]2O)c1; pH 8, 45 °C).
`PYCR2 (Homo sapiens, UniProt Q96C36)` gave a Km of 216 µM (NC(=O)C1=CN([C@@H]2O[C@H](COP(=O)(O)OP(=O)(O)OC[C@H]3O[C@@H](n4cnc5c(N)ncnc54)[C@H](OP(=O)(O)O)[C@@H]3O)[C@@H](O)[C@H]2O)C=CC1; pH 7.5, 37 °C, apparent, cofactor varied, with: DL-P5C 5000 µM).
With `enzyme (Chlorobaculum tepidum, UniProt Q8KC02)` the Km was 600 µM (CC(=O)C(=O)O; pH 7.5, 30 °C).
`B4 (enzyme S252E)` gave a Km of 220 µM (NC(=O)c1ccc[n+]([C@@H]2O[C@H](COP(=O)(O)OP(=O)(O)OC[C@H]3O[C@@H](n4cnc5c(N)ncnc54)[C@H](OP(=O)(O)O)[C@@H]3O)[C@@H](O)[C@H]2O)c1; pH 7, 30 °C, apparent).
For `B5 (enzyme Y136L/Y168I)`, the Km was 2.95 µM (C=C1CC[C@@H]2C(C)(C)CCC[C@@]2(C)[C@@H]1CC/C(C)=C/COP(=O)(O)OP(=O)(O)O).
`enzyme (Arabidopsis thaliana, UniProt O80449)` gave a Km of 11.3 µM (CC/C=C\C[C@@H]1C(=O)CC[C@@H]1CC(=O)O; pH 7.5, 20 °C).
`enzyme (Roseiflexus castenholzii, UniProt A7NLX0)` has a Km of 120 µM (O=C(O)CCC(=O)C1=CC=C[C@@H](O)[C@@H]1C(=O)O; pH 8, 25 °C).
`B6 (enzyme)` has a Km of 350 µM (O=C(O)[C@]1(O)C[C@@H](O)[C@@H](O)[C@H](O)C1; pH 7.5, 37 °C).
`enzyme (Trypanosoma brucei, UniProt Q9GV41)` has a Km of 5.7 µM (NC(=O)C1=CN([C@@H]2O[C@H](COP(=O)(O)OP(=O)(O)OC[C@H]3O[C@@H](n4cnc5c(N)ncnc54)[C@H](OP(=O)(O)O)[C@@H]3O)[C@@H](O)[C@H]2O)C=CC1; pH 7, 37 °C, cofactor varied).
`B7 (enzyme T339A)` gave a Km of 360 µM (C[C@@H]1O[C@H](OP(=O)(O)OP(=O)(O)OC[C@H]2O[C@@H](n3cnc4c(=O)[nH]c(N)nc43)[C@H](O)[C@@H]2O)[C@@H](O)[C@H](O)[C@@H]1O; pH 6.5, 30 °C).
`B8 (SABP2)` gave a Km of 2200 µM (CC(=O)Oc1ccc([N+](=O)[O-])cc1; pH 7.2, 22 °C).
`acsA (Pseudomonas chlororaphis, UniProt Q5CD72)` gave a Km of 130 µM (CC(=O)O; pH 7).
The Km of `enzyme (Actinosynnema mirum, UniProt C6WFL3)` is reported as 37 µM (O=C(CO)[C@@H](O)[C@H](O)[C@H](O)[C@H](O)COP(=O)(O)O; pH 7.5, 28 °C).
`CYP1A1 (Homo sapiens, UniProt P04798)` gave a Km of 0.88 µM (CC(C)=CCc1cc2c(cc1O)O[C@H](c1ccc(O)cc1)CC2=O; pH 7.4, 37 °C).
`enzyme (Acinetobacter baumannii, UniProt A0A5P1UDB1)` gave a Km of 20.6 µM (O=C(O)c1cccc(O)c1O; pH 7.5, 37 °C, apparent).
The Km of `RABH1B (Arabidopsis thaliana, UniProt O80501)` is reported as 12900 µM (Nc1nc2c(ncn2[C@@H]2O[C@H](COP(=O)(O)OP(=O)(O)OP(=O)(O)O)[C@@H](O)[C@H]2O)c(=O)[nH]1; pH 7.5, 30 °C).
For `GLO2 (Arabidopsis thaliana, UniProt Q9LRS0)`, the Km was 362 µM (O=C(O)CO).
For `bcp (Escherichia coli, UniProt P0AE52)`, the Km was 574 µM (CC(C)(C)OO; pH 7, 25 °C, apparent).
